Measurements from different studies.
Values joined by “and” are separate records of one study, mostly repeats; a detail may differ. ± gives the spread as reported.

For `CC(C)C[C@H](NC(=O)C[C@H](O)[C@H](CC(C)C)NC(=O)[C@H](Cc1c[nH]cn1)NC(=O)CNC(=O)[C@@H](NC(=O)[C@H](C)NC(=O)[C@H](Cc1c[nH]c2ccccc12)NC(=O)[C@H](CCC(N)=O)NC(=O)[C@@H](Cc1ccccc1)NC(=O)COCCOCCNC(=O)CCC(C(=O)O)N1CCN(CC(=O)O)CCN(CC(=O)O)CCN(CC(=O)O)CC1)C(C)C)C(N)=O` (stereo partly shown) [lutetium-177 labelled], the tissue uptake was 0.008 ± 0.005 %ID/g (female BALB/c nu/nu mice, blood; intravenous, 50 pmol, 24 h).
With `O=S(=O)(O)C1CCNCC1` the fraction bound was 0 (Sodium- and chloride-dependent taurine transporter (SLC6A6, Homo sapiens, UniProt P31641, Y138A); binding, microscale thermophoresis; 35.1 nM, fitted curve; higher = more binding).
Under “plasma membrane localization”, `CC(=C/C(=O)O)/C=C/C=C(\C)C1C=C2C(C)(C)CCCC2(C)O1` (stereo not shown) is recorded as 0 (Rhodopsin (RHO, Homo sapiens, UniProt P08100, T17M); immunostaining, refers to: opsin; COS-7 transfected; 0.10 µM, unit not given; reference: surface over total stained cells).
The hepatic clearance of `O=C(NCc1cc[nH]n1)c1ccc(C2CCCCC2)cc1` is reported as 1.08 L/h/kg (hepatocyte stability; cryopreserved human hepatocytes; 1 µM).
With `Nc1nc2c(ncn2[C@@H]2O[C@H](COP(=O)(O)O)[C@@H](O)[C@H]2O)c(=O)[nH]1` the reaction velocity was 0.0916 µM/s and 0.09 µM/s and 0.0783 µM/s (GUK1 (Homo sapiens, UniProt Q16774); enzyme activity, NADH-coupled; 31.25 µM, added: KCl 50 mM).
`Nc1ncc2c(n1)-c1c([nH]c3ccc(C#CC4CC4)cc13)CCCC2` has an affinity ratio of > 100 fold (Phosphatidylinositol 5-phosphate 4-kinase type-2 gamma (PIP4K2C, Homo sapiens, UniProt Q8TBX8); binding, NanoBRET target engagement; intact cells; reference: cell-free over intact-cell affinity).
`CC[C@H](C)[C@H](NC(=O)[C@H](Cc1ccccc1)NC(=O)[C@H](CCC(=O)O)NC(=O)[C@H](CCCNC(=N)N)NC(=O)[C@H](C)NC(=O)[C@H](C)NC(=O)[C@H](CCC(N)=O)NC(=O)[C@H](CCCCNc1c(NCCCCCN(O)C(=O)CCC(=O)NCCCCCN(O)C(=O)CCC(=O)NCCCCCN(O)C(C)=O)c(=O)c1=O)NC(=O)[C@H](CCC(=O)O)NC(=O)[C@H](CC(C)C)NC(=O)[C@H](Cc1ccc(O)cc1)NC(=O)[C@H](CO)NC(=O)[C@H](CO)NC(=O)[C@@H](NC(=O)[C@H](CC(=O)O)NC(=O)[C@H](CO)NC(=O)[C@@H](NC(=O)[C@H](Cc1ccccc1)NC(=O)[C@@H](NC(=O)CNC(=O)[C@H](CCC(=O)O)NC(=O)[C@H](C)NC(=O)CCc1cnc[nH]1)[C@@H](C)O)[C@@H](C)O)C(C)C)C(=O)N[C@@H](C)C(=O)N[C@@H](Cc1c[nH]c2ccccc12)C(=O)N[C@@H](CC(C)C)C(=O)N[C@H](C(=O)N[C@@H](CCCCNc1c(NCCCCCN(O)C(=O)CCC(=O)NCCCCCN(O)C(=O)CCC(=O)NCCCCCN(O)C(C)=O)c(=O)c1=O)C(=O)NCC(=O)N[C@@H](CCCNC(=N)N)C(=O)N[C@@H](CCCCNC(=O)COCCOCCNC(=O)COCCOCCNC(=O)CC[C@H](NC(=O)CCCCCCCCCCCCCCCCC(=O)O)C(=O)O)C(=O)O)C(C)C`: “fold potency loss” 44.7 (Glucagon-like peptide 1 receptor (GLP1R, Homo sapiens, UniProt P43220); agonist, CRE luciferase reporter; BHK cells; metal-free DFO conjugate, added: 0% HSA; reference: parent peptide).
The kcat of `O=C(CO)NC1C(O)CC(OC2C(O)C(CO)OC(Oc3ccc([N+](=O)[O-])cc3)C2O)(C(=O)O)OC1C(O)C(O)CO` (stereo not shown) is reported as 0.31 ± 0.01 s⁻¹ (Sialidase-2 (Homo sapiens, UniProt Q9Y3R4); substrate; 10 min, pH 5.0, 37 °C).
`CC(C(=O)Nc1ccc(C2CCCCC2)cc1)n1cncn1` (stereo not shown) gave a hepatic clearance of 1.5 L/h/kg (cynomolgus liver microsomes; 1 µM).
For `O=c1nc(SCc2cc(F)cc(C(F)(F)F)c2)nc(SCc2ccc3nc(OCCN4CCOCC4)ccc3c2)[nH]1`, “mean decatenated DNA” read 0% (DNA topoisomerase 2-alpha (TOP2A, Homo sapiens, UniProt P11388); decatenation; 125 µM).
`OC[C@H]1O[C@H](OC[C@H]2OC(O)(CO)[C@@H](O)[C@@H]2O)[C@H](O)[C@@H](O)[C@@H]1O` (stereo partly shown) has a ΔTm of 3.66 °C (uncharacterized protein (Pelagibacter ubique, UniProt Q4FMK2); differential scanning fluorimetry; Candidatus Pelagibacter ubique; concentration not given; higher = stronger binding).
`CCS(=O)(=O)N1CC(CC#N)(n2cc(-c3ncnc4[nH]ccc34)cn2)C1`: “binding entropy change” 23.9 J/mol/K (Alpha-1-acid glycoprotein 1 (ORM1, Homo sapiens, UniProt P02763); van't Hoff; concentration not given, 293-308 K).
For `CCCCC[S+]([O-])c1n[nH]c(N)n1` (stereo not shown), “log fold enrichment” read -0.0585 (Transcription intermediary factor 1-beta, PHD-bromodomain (TRIM28, Homo sapiens, UniProt Q13263); binding, affinity selection mass spectrometry; reference: other proteins in batch).
